Results of several laboratories.
Protocols differ between the studies behind these lines. ± gives the spread as reported.

| Structure (SMILES) | assay | system | setting | how to read | Cmax |
| --- | --- | --- | --- | --- | --- |
| CCCCCCCCCCCCCC(=O)N[C@@H](Cc1ccccc1)C(=O)N[C@@H](CCC(=O)O)C(=O)N[C@@H](CCC(=O)O)C(=O)N[C@@H](CCC(=O)O)C(=O)N[C@@H](CCCNC(=N)N)C(=O)N[C@@H](CC(C)C)C(=O)O | – | whole blood | intravenous, 5 mg/kg, HLPN formulation | – | 33400 ng/mL |
| COc1ccc(F)cc1S(=O)(=O)Nc1cnc2c(c1)C(=O)NCCO2 | – | male C57BL/6 mouse, plasma | oral, 0.1 mg/kg, single dose | – | 16.5 ng/mL |
| CC[C@H](C)C(=O)N1CCC(NC(=O)Nc2ccc(OC(F)(F)F)c(F)c2)CC1 | – | healthy volunteers | oral, 8 mg | baseline: fasted, increase | 66% |
| CCCCCCCC(=O)OC[C@H](NC(=O)[C@H](CO)NC(=O)CN)C(=O)N[C@@H](Cc1ccccc1)C(=O)N[C@@H](CC(C)C)C(=O)N[C@@H](CO)C(=O)N1CCC[C@H]1C(=O)N[C@@H](CCC(=O)O)C(=O)N[C@@H](Cc1cnc[nH]1)C(=O)N[C@@H](CCC(N)=O)C(=O)N[C@@H](CCCNC(=N)N)C(=O)N[C@H](C(=O)N[C@@H](CCC(N)=O)C(=O)N[C@@H](CCC(N)=O)C(=O)N[C@@H](CCCNC(=N)N)C(=O)N[C@@H](CCCCN)C(=O)N[C@@H](CCC(=O)O)C(=O)N[C@@H](CO)C(=O)N[C@@H](CCCCN)C(=O)N[C@@H](CCCCN)C(=O)N1CCC[C@H]1C(=O)N1CCC[C@H]1C(=O)N[C@@H](C)C(=O)N[C@@H](CCCCN)C(=O)N[C@@H](CC(C)C)C(=O)N[C@@H](CCC(N)=O)C(=O)N1CCC[C@H]1C(=O)N[C@@H](CCCNC(=N)N)C(=O)O)C(C)C | two-site ELISA | human, plasma | intravenous infusion, 3 µg/kg/h, 65 min infusion | – | 11.7 ± 2.4 ng/mL |
| [2H]C([2H])([2H])C([2H])([2H])C([2H])([2H])OC(C(=O)OC1CCNCC1)(c1ccccc1)c1ccccc1 | – | healthy Japanese male subjects, plasma | oral, 10 mg once daily, day 16, fed, mean | – | 112 ng/mL |
| CC(C)[C@H]1NC(=O)C[C@H]2/C=C/CCSSC[C@@H](NC1=O)C(=O)N[C@H](Cc1cccc3ccccc13)C(=O)NCC(=O)O2 | – | nude mouse, blood | oral, 12 mg/kg | – | 0.825 ng/mL |
| C[C@H](CCC(=O)N[C@@H](CCCCNC(=O)C(F)(F)F)C(=O)O)[C@H]1CC[C@H]2[C@@H]3[C@H](O)C[C@@H]4C[C@H](O)CC[C@]4(C)[C@H]3C[C@H](O)[C@]12C | – | C57BL/6J mice, gallbladder | oral, 50 mg/kg | – | 11100 ± 2400 µM |
| CC(=CCC(O)C(C)=Cc1csc(C)n1)CC=CC(C)C(O)C(C)C(=O)C(C)(C)C(O)CC(=O)O (stereo not drawn) | – | human, plasma | intravenous infusion, 27 mg/m2 KOS-1584, 3 h infusion, cycle 1 | – | 14.3 ± 3.64 ng/mL |
| CC(C)C[C@@H](N)C(=O)NCC(=O)N[C@H](C)C(=O)N[C@H](CO)C(=O)N[C@H](Cc1c[nH]c2ccccc12)C(=O)N[C@H](Cc1c[nH]cn1)C(=O)N[C@H](CCCNC(=N)N)C(=O)N1CCC[C@@H]1C(=O)N[C@H](CC(=O)O)C(=O)N[C@H](CCCCN)C(=O)N[C@H](CS)C(=O)N[C@H](CS)C(=O)N[C@H](CC(C)C)C(=O)NCC(=O)N[C@H](Cc1ccc(O)cc1)C(=O)N[C@H](CCC(N)=O)C(=O)N[C@H](CCCCN)C(=O)N[C@H](CCCNC(=N)N)C(=O)N1CCC[C@@H]1C(=O)N[C@H](CC(C)C)C(=O)N1CCC[C@@H]1C(N)=O | – | male Sprague-Dawley rat, plasma | subcutaneous, 10 mg/kg, single dose | – | 8590 ng/mL |
| O=c1cc(-c2ccccc2)oc2c(Br)c(O)c(O)c(O)c12 | – | C57BL/6 mouse, plasma | oral, 250 mg/kg, single dose | – | 6440 ng/mL |
| CCN(C)C(=O)Oc1ccccc1/C=C1\Cc2cc(OC)c(OC)cc2C1=O | – | male Sprague-Dawley rat, plasma | oral, 100 mg/kg, single dose | – | 350 ng/mL |
| C(#Cc1cncc(OC[C@@H]2CCN2)c1)c1ccccc1 | – | male Sprague-Dawley rat, plasma | oral, 75 mg/kg | – | 560 ng/mL |
| CCCCCCCC(=O)NC[C@H](NC(=O)[C@H](CO)NC(=O)CN)C(=O)N[C@@H](Cc1ccccc1)C(=O)N[C@@H](CC(C)C)C(=O)N[C@@H](CO)C(=O)N1CCC[C@H]1C(=O)N[C@@H](CCC(=O)O)C(=O)N[C@@H](Cc1c[nH]cn1)C(=O)N[C@@H](CCC(N)=O)C(=O)N[C@@H](CCCNC(=N)N)C(=O)N[C@H](C(=O)N[C@@H](CCC(N)=O)C(=O)N[C@H](C(=O)N[C@@H](CCCNC(=N)N)C(=O)N1CCC[C@H]1C(=O)N1CCC[C@H]1C(=O)N[C@@H](Cc1c[nH]cn1)C(=O)N[C@@H](CCCCN)C(=O)N[C@@H](C)C(=O)N1CCC[C@H]1C(=O)N[C@@H](Cc1c[nH]cn1)C(=O)N[C@H](C(=O)N[C@H](C(=O)O)C(C)C)C(C)C)C(C)C)C(C)C | – | mouse, plasma | intraperitoneal, 1.2 mg/kg | – | 36.3 ng/mL |
| CSCC[C@H](NC(=O)[C@H](CO)NC(=O)[C@H](Cc1ccc(O)cc1)NC(=O)[C@@H](N)CO)C(=O)N[C@@H](CCC(=O)O)C(=O)N[C@@H](Cc1c[nH]cn1)C(=O)N[C@@H](Cc1ccccc1)C(=O)N[C@@H](CCCNC(=N)N)C(=O)N[C@@H](Cc1c[nH]c2ccccc12)C(=O)NCC(=O)N[C@@H](CCCCN)C(=O)N1CCC[C@H]1C(=O)N[C@H](C(=O)NCC(=O)N[C@@H](CCCCN)C(=O)N[C@@H](CCCCN)C(=O)N[C@@H](CCCNC(=N)N)C(=O)N[C@@H](CCCNC(=N)N)C(=O)N1CCC[C@H]1C(=O)N[C@H](C(=O)N[C@@H](CCCCN)C(=O)N[C@H](C(=O)N[C@@H](Cc1ccc(O)cc1)C(=O)N1CCC[C@H]1C(=O)N[C@@H](CC(=O)O)C(=O)NCC(=O)N[C@@H](C)C(=O)N[C@@H](CCC(=O)O)C(=O)N[C@@H](CC(=O)O)C(=O)N[C@@H](CCC(=O)O)C(=O)N[C@@H](CC(C)C)C(=O)N[C@@H](C)C(=O)N[C@@H](CCC(=O)O)C(=O)N[C@@H](C)C(=O)N[C@@H](Cc1ccccc1)C(=O)N1CCC[C@H]1C(=O)N[C@@H](CC(C)C)C(=O)N[C@@H](CCC(=O)O)C(=O)N[C@@H](Cc1ccccc1)C(=O)O)C(C)C)C(C)C)C(C)C | – | healthy human subjects, plasma | subcutaneous, 80 IU three times weekly, day 15, repository corticotropin injection | – | 0.301 ng/mL |
| CC1(C)C(=O)N(c2ccc(C#N)c(C(F)(F)F)c2)C(=S)N1c1ccc(C(N)=O)c(F)c1 | – | human, male, plasma | oral, 160 mg, single dose, after high-fat meal | – | 463 ± 128 ng/mL |
| CCc1c2c(nc3ccc(OC4OC(C(=O)O)C(O)C(O)C4O)cc13)-c1cc3c(c(=O)n1C2)COC(=O)C3(O)CC (stereo not drawn) | – | human patients, plasma | intravenous, 56 mg/m^2 of parent drug | – | 86 ng/mL |
| CN(CC(=O)N(Cc1ccc(C2CCCCC2)cc1)c1ccc(C(=O)O)cc1)S(=O)(=O)c1c(F)c(F)c(F)c(F)c1F | – | mouse, plasma | intraperitoneal, 20 mg/kg | – | 1660 ng/mL |
| CCOC(=O)[C@@H]1Cc2c(cc([N+](=O)[O-])cc2[N+](=O)[O-])[C@H](O)[C@]12C(=O)Nc1ccc(Br)cc12 | – | Sprague-Dawley rat, plasma | oral, 15 mg/kg | – | 5900 ng/mL |

Repeated from above:
| Structure (SMILES) | assay | system | setting | how to read | Cmax |
| --- | --- | --- | --- | --- | --- |
| O=c1cc(-c2ccccc2)oc2c(Br)c(O)c(O)c(O)c12 | – | C57BL/6 mouse, plasma | oral, 250 mg/kg, single dose | – | 6440 ng/mL |
| CCN(C)C(=O)Oc1ccccc1/C=C1\Cc2cc(OC)c(OC)cc2C1=O | – | male Sprague-Dawley rat, plasma | oral, 100 mg/kg, single dose | – | 350 ng/mL |
| C(#Cc1cncc(OC[C@@H]2CCN2)c1)c1ccccc1 | – | male Sprague-Dawley rat, plasma | oral, 75 mg/kg | – | 560 ng/mL |
